{"data": "Published values collected from several papers", "note": "Every numbered part comes from another study and shows a few of its results, in no order. Substitutions count along the parent as printed."}
{"data": "Series 1", "target": "ABI1, truncated, D143A, DHFR fusion (Arabidopsis thaliana)", "technique": "DHFR PCA, deep sequencing", "medium": "yeast", "setting": "methotrexate growth selection, single substitutions", "together with": "(+)-ABA 0.11 µM", "relative to": "wild-type fitted maximum", "direction": "higher = stronger binding", "starting sequence": "PYL1, truncated, DHFR fusion (Arabidopsis thaliana); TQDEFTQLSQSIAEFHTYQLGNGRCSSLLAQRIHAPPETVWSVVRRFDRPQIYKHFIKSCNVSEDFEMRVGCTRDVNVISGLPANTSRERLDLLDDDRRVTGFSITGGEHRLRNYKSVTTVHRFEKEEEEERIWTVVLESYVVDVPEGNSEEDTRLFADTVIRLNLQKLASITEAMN"}
{"Change": "L164V", "relative binding score [%]": 17.8}
{"Change": "S117V", "relative binding score [%]": -3.62}
{"Change": "T173N", "relative binding score [%]": 3.55}
{"Change": "V143M", "relative binding score [%]": -0.586}
{"Change": "R113N", "relative binding score [%]": 18.1}
{"Change": "H55V", "relative binding score [%]": 66}
{"Change": "A175S", "relative binding score [%]": 32.9}
{"Change": "L93W", "relative binding score [%]": 0.304}
{"Change": "H16L", "relative binding score [%]": -1.99}
{"Change": "V136D", "relative binding score [%]": -1.21}
{"Change": "W134E", "relative binding score [%]": 47.2}
{"Change": "S9C", "relative binding score [%]": 26.3}
{"Change": "K168V", "relative binding score [%]": 2.24}
{"data": "Series 2", "target": "CCNB2, cyclin fold, Cln2 fusion (human)", "technique": "yeast growth competition, sequencing", "medium": "yeast", "setting": "weak parent motif", "relative to": "not given", "direction": "higher = stronger binding", "starting sequence": "SCAPER docking peptide (human); SNARRSLNFGGST"}
{"Change": "SNAMRSLNFGGST [R4M]", "normalised enrichment score": -0.243}
{"Change": "SWARRSLNFGGST [N2W]", "normalised enrichment score": -0.117}
{"Change": "SEARRSLNFGGST [N2E]", "normalised enrichment score": -0.225}
{"Change": "SNARRSLNFMGST [G10M]", "normalised enrichment score": -0.0111}
{"Change": "SNARRNLNFGGST [S6N]", "normalised enrichment score": 0.226}
{"Change": "INARRSLNFGGST [S1I]", "normalised enrichment score": 0.239}
{"Change": "SNARRSLHFGGST [N8H]", "normalised enrichment score": 0.302}
{"Change": "SNARLSLNFGGST [R5L]", "normalised enrichment score": 0.0765}
{"data": "Series 3", "target": "CREB3L1, bZIP domain (human)", "technique": "DHFR protein complementation", "medium": "yeast", "setting": "single substitutions, most at no-binding floor", "relative to": "wild-type JUN-FOS pair", "direction": "higher = stronger binding", "starting sequence": "JUN, bZIP domain (human); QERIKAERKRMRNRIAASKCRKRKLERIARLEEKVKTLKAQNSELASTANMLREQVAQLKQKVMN; partner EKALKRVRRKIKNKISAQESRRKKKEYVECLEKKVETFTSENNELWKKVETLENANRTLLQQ"}
{"Change": "Q41I", "binding fitness [natural log]": -1.46}
{"Change": "A57K", "binding fitness [natural log]": -1.5}
{"Change": "A49Y", "binding fitness [natural log]": -1.44}
{"Change": "K39T", "binding fitness [natural log]": -1.46}
{"Change": "A29D", "binding fitness [natural log]": -1.33}
{"Change": "L31V", "binding fitness [natural log]": -1.46}
{"Change": "L52Q", "binding fitness [natural log]": -1.48}
{"Change": "L45R", "binding fitness [natural log]": -1.52}
{"Change": "L31D", "binding fitness [natural log]": -1.51}
{"Change": "E33A", "binding fitness [natural log]": -1.27}
{"Change": "I28Y", "binding fitness [natural log]": -1.54}
{"Change": "L52V", "binding fitness [natural log]": -1.45}
{"Change": "A46K", "binding fitness [natural log]": -1.25}
{"data": "Other studies, line by line"}
{"Molecule": "PhoQ, residues 284 288 289 292 302 303 SLKLQV", "target": "PhoP, residues 12 14 15 18 19 YHFSH (Escherichia coli, UniProt P23836)", "assay": "Sort-seq, measured: YFP reporter", "test system": "E. coli", "conditions": "PhoQ-PhoP variant library, together with: 10 µM Mg2+", "how to read": "relative to: high Mg2+ state, higher = stronger signaling", "endpoint": "fold induction", "value": 2.92}
{"note": "Repeated from above (series 1):"}
{"Change": "A175S", "relative binding score [%]": 32.9}
{"Change": "L93W", "relative binding score [%]": 0.304}
{"Change": "H16L", "relative binding score [%]": -1.99}
{"Change": "V136D", "relative binding score [%]": -1.21}
{"Change": "W134E", "relative binding score [%]": 47.2}
